Measured values collected from several papers.
Each numbered part is a random draw from the data of one study; scales do not carry over between parts. Positions count from the first letter of the parent shown.

Study 1
Target: RING finger protein unkempt homolog, zinc fingers 1-6, SBP tag (UNK, Homo sapiens, UniProt Q9C0B0, residues 30-357)
Chain of UniProt Q9C0B0 (30-357, looked up): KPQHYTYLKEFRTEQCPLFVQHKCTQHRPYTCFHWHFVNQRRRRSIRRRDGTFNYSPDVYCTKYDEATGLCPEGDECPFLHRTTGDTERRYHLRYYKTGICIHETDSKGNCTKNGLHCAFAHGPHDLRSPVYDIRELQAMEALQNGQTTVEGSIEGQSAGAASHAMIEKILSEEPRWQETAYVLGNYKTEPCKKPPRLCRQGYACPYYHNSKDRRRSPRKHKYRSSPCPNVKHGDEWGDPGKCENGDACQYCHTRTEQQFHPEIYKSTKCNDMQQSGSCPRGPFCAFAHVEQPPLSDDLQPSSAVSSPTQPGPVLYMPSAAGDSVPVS
Method: RNA Bind-n-Seq
Molecule type: RNA
Sample: in vitro
Concentration: 100 nM
Setting: RNA with constant flanks, vertebrate orthologous sites, ends assumed
Reference: input RNA pool
Direction: higher = stronger binding
Sequence | bound/input enrichment [ratio]
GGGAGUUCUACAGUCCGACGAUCUUACAGUCAUUGAUGGACUCUAUUUUUUUAUUAUUACUUGGACCUUGGUCGUUUUUAUACUAGCAAAAUGUCUUGUUUUAAUUUGUGUUUUUUCGGGGGGAGGGAGUGAACUUGCUGAUUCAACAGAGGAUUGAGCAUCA | 2.5
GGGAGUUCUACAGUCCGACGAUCUAAUCGCUCUAAUUGUAUUCUGAAUAAAAGUGUAACAUUGUGUAGCCUUUUUGUAUAAAUUAGACACAUAGAAAUGGUCCAAUUAGUUUCCUUUUUAAUAUGCUUAAAAUAAGCAGGUGGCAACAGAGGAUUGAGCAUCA | 2.17
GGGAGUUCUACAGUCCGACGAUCACUUAAAGUCUUAAAGAAAUUAUACCGGAAUCCAGACAUUGAUUUUGCGGGGUCAGGCCAUUGGAUGGUGUUGCUGUGUUUAUUGUCUUGUUGUGUUUUUAAAAUCUGUGUACUUUGUCCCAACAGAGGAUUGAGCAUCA | 0.998
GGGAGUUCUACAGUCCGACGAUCGUCCUACCUGUGCAAACUUCACAACACUGAAUGCAAAGUAGCGAUUUCCGUAGCCACAGUAAGGUAGCUUUAGGGCACUAUUGCCAUGGUUUUACUCAUGGGCAAGUUUUGACAAUGUAUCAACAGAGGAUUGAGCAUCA | 0.648
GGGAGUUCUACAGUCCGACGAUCCCUCCCCCUGACCCUAAAGUAGAUCUUUUAAAAAUUAUGUCACCACCACUUGUAAAAAUUUAGCAAUACCAGAAGAAAACGCUAAUGAAGUAAGAAAUUUUGCUCAUUGUUUUGCAAACCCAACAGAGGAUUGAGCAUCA | 2.77
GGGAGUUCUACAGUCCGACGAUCCCCCUCUGAACCCCAUAUCUUCUGUUUCAUAGUGCAGAGUAUUCUCUUCAAUUAUGUUAUUAGUGGACUUGUUUUAAUUUUAGAGAAACUUUCAGUACAGAUACUGUGAGCUUACAUGGACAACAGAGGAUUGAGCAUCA | 1.21
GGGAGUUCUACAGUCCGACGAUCCCGAAAGGCCAAAUUCCCUCCUCCCUUCUACUGCUUCUACCAACUGGAAGCACAGAAAACUAGAAUUUCAUUUAUUUUGUUUUUAAAAAAAUAUGUUGAUUUCUUGUAACAUCCAAUAGGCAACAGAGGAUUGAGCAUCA | 0.45
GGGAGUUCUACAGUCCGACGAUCCAUGUCCCUGUUACUGUGACAUUUUAAAUAUCCACAGUGCUCACUUUUUCCAAAUGAUUCUAGUAAUUACCUAGAAAUAUUUUUCUCUUACCUGUUAUUUAUCAAUUUUCCCCCAGUAUUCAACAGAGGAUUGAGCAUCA | 1.8
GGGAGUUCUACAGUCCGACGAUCCCUACAAUAAUGAAAACCUAUAGAAAUUUUUUAAUUUUUCAUUUUCCCCUUAGGCAUACAUAGUCUUUUUUUCCCCCAGGCAGAUCAUUCUGAGUGUGCGAGUGUGUGUGCACAUGUUACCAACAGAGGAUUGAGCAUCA | 3.15
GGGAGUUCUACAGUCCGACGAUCGUGUCUAAGUUUGAAAGACACUUCCUUGUAAGGCACUUUGGCUCUUCACAGCUCAUGGUAUUUACAUAUCUAUUUUUUAAAAAACAGCAGUAUGAACUCAAAGGGGAGUCACUUGGCUUGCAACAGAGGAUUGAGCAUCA | 0.52
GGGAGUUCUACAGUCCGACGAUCAAAUGCAAUGGUUGAAGGCUCUGAGCUCAAAAAGAUUCGAUCCAACUCUAGGGUGUAUCACCGAUACUUUCUUUUAGAUGCAGAUAUGCAGUCUCUACGCUGGGAACCUUCAAAAAAGGACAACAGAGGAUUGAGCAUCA | 0.3

Study 2
Target: ABI1, truncated, D143A, DHFR fusion (Arabidopsis thaliana)
Method: DHFR PCA, deep sequencing
Sample: yeast
Setting: methotrexate growth selection, single substitutions
Together with: (+)-ABA 710 µM
Reference: wild-type fitted maximum
Direction: higher = stronger binding
Starting sequence: PYL1, truncated, DHFR fusion (Arabidopsis thaliana); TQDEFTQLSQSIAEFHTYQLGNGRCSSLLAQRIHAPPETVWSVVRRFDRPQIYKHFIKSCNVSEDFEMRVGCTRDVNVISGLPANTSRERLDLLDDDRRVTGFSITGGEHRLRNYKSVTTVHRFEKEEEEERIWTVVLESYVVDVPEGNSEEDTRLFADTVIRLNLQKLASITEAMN
Change | relative binding score [%]
E139I | 94.1
G81I | 8.73
K126Q | 109
S59G | 97.1
S27K | 85.3
D75R | 98.5
D96E | 111

Study 3
Target: CCNA1, cyclin fold, Cln2 fusion (human)
Method: yeast growth competition, sequencing
Sample: yeast
Setting: strong parent motif
Reference: not given
Direction: higher = stronger binding
Starting sequence: CCP110 docking peptide (human); EKVKRRLDLDIDG
Change | normalised enrichment score
R5K L9F | 1.61
K4A | 0.00167
R5A | 0.369
R5A L7A | 0.244
G13A | 0.373
L7A | 0.0413
L9A | 0.142
D12A | 0.48
R5K | 0.246
R6A | 0.478

Other studies, line by line
Molecule | target | test | system | conditions | scale | measurement | result
PhoQ, residues 284 288 289 292 302 303 TTCLQL | PhoP, residues 12 14 15 18 19 LHTVM (Escherichia coli, UniProt P23836) | Sort-seq, item: YFP reporter | E. coli | PhoQ-PhoP variant library, together with: 10 µM Mg2+ | reference: high Mg2+ state, higher = stronger signaling | fold induction | 5.72

A few entries again (study 2):
Change | relative binding score [%]
D96E | 111
D75R | 98.5
G81I | 8.73
S27K | 85.3
S59G | 97.1
